Measured values of several laboratories.
Lines come from different studies, so protocols differ. Several values in a cell are separate wells, animals, samples, runs or records. ± gives the spread as reported.
Cell line: T47D

`O=C(Nc1nnc2n3c(Cc4ccccc4)n[nH]c3nc(-c3ccc(Cl)cc3)c1-2)c1ccccc1` has a cell growth of 100% (SRB; 10 µM, NCI60 single-dose screen; baseline: untreated).
With `CCCC(CCC)C(=O)OCc1cn(-c2c3ccccc3nc3ccccc23)nn1` the growth percentage was 93.5% (NCI60 single-dose screen; 10 µM).
`C=CC(=O)N1CCC(COCC(=O)N2CCN(c3nc(-c4cnc(N)nc4C(F)F)nc(N4CCOC[C@@H]4C)n3)CC2)CC1` has a GR50 of 0.8 nM (cell growth; 72 h).
With `O=C1NCCc2[nH]c(-c3ccncc3)cc21` the IC50 was > 10000 nM (MTS; NCI60 panel).
For `CCCCN1CCN(c2ccc3nc(-c4ccc5nc(-c6cc(OC)ccc6OC)[nH]c5c4)[nH]c3c2)CC1`, the growth percent was 92.6% (SRB; 10 µM, 48 h).
The Hill coefficient of `C[C@H](Nc1ccc2c(c1)OCCn1cc(N3C(=O)OC[C@H]3C(F)F)nc1-2)C(N)=O` is reported as 1.02 (CellTiter-Glo; 120 h).
For `C[C@H](Nc1ccc2c(c1)OCCn1cc(N3C(=O)OC[C@H]3C(F)F)nc1-2)C(N)=O`, the IC50 was 7.3 nM (Akt phosphorylation, inhibitor, in-cell western, item: Akt pSer473; 2 h).
The cell growth of `NNc1nc(-c2ccc(Cl)cc2)c2c(NC(=O)c3ccccc3)nnc-2[nH]1` is reported as 97.2% (SRB; 10 µM, NCI60 single-dose screen; baseline: untreated).
With `Cc1cc(C)n(C(=S)[S][Au][PH](CCCCCC[PH]([Au][S]C(=S)n2nc(C)cc2C)(c2ccccc2)c2ccccc2)(c2ccccc2)c2ccccc2)n1` the log10 TGI was > -4 (cell growth, NCI-60 screen; breast cancer).
`CCCCN1CCN(c2ccc3[nH]c(-c4ccc5[nH]c(-c6cc(OC)c(OC)c(OC)c6)nc5c4)nc3c2)CC1` has a growth percent of 66% (SRB; 10 µM, 48 h).
For `C#C[C@@]1(O)[C@@H](CO)O[C@@H](n2cc(Cl)c3c(N)ncnc32)[C@@H]1O`, the TGI was 559 nM and 428 nM (SRB; NCI-60 screen).
For `CCCN1CCN(c2ccc3[nH]c(-c4ccc5[nH]c(-c6cc(OC)c(OC)c(OC)c6)nc5c4)nc3c2)CC1`, the growth percent was 65.9% (SRB; 10 µM, 48 h).
`CSc1nc(-c2ccc(Cl)cc2)c2c(NC(=O)c3ccccc3)nnc-2[nH]1` has a cell growth of 82.5% (SRB; 10 µM, NCI60 single-dose screen; baseline: untreated).
With `[NH2][Pt]([NH2])([Cl])[Cl]` the GI50 was 17000 ± 3000 nM (cell growth, sulforhodamine B).
With `Cc1cc(-c2ccccc2)n(-c2nc(-c3ccc(Cl)cc3)c3c(NC(=O)c4ccccc4)nnc-3[nH]2)n1` the cell growth was 84.3% (SRB; 10 µM, NCI60 single-dose screen; baseline: untreated).
For `O=c1ccn(Cc2cn(-c3cc4ccccc4oc3=O)nn2)c(=O)[nH]1`, the growth percentage was 97% (NCI60 single-dose screen; 10 µM).
`CCN(CC)c1ccc(C=NNC(=O)CSc2nc3ccccc3c(=O)n2Cc2ccc(S(N)(=O)=O)cc2)c(O)c1` gave a TGI of > 100000 nM (NCI five-dose screen).
The growth percentage of `Cc1cc(=O)[nH]c(=O)n1Cc1cn(-c2c3ccccc3nc3ccccc23)nn1` is reported as -5.5% (NCI60 single-dose screen; 10 µM).
The cell growth of `CCOC(=O)CSc1nc(-c2ccc(Cl)cc2)c2c(NC(=O)c3ccccc3)nnc-2[nH]1` is reported as 89.2% (SRB; 10 µM, NCI60 single-dose screen; baseline: untreated).
The GI50 of `O=C(/C=C/C=C/C=C/C1CCCCC1)NC1=C[C@@](O)(/C=C/C=C/C=C/C(=O)NC2=C(O)CCC2=O)[C@@H]2O[C@@H]2C1=O` is reported as 10800 nM (cell growth, CellTiter-Glo; 78 h).
The IC50 of `Cc1nc(NC(=O)N2CCC[C@H]2C(N)=O)sc1-c1ccnc(C(C)(C)C(F)(F)F)c1` is reported as 70.2 nM (S6 phosphorylation, inhibitor, in-cell western, item: phospho-S6 Ser235/236; 2 h).
For `C#C[C@@]1(O)[C@@H](CO)O[C@@H](n2cc(Br)c3c(N)ncnc32)[C@@H]1O`, the TGI was 177 nM (SRB; NCI-60 screen).
With `Cn1cncc1C1=CN(c2ncnc3[nH]cnc23)CCS1` the TGI was 129000 nM.
`CCCCN1CCN(c2ccc3[nH]c(-c4ccc5[nH]c(-c6ccc(C(F)(F)F)cc6)nc5c4)nc3c2)CC1` has a growth percent of -37.3% (SRB; 10 µM, 48 h).
`O=C(Nc1nnc2[nH]c(=S)[nH]c(-c3ccc(Cl)cc3)c1-2)c1ccccc1` has a cell growth of 98.2% (SRB; 10 µM, NCI60 single-dose screen; baseline: untreated).
`CCCN1CCN(c2ccc3[nH]c(-c4ccc5[nH]c(-c6ccc(OCC)c(OCC)c6)nc5c4)nc3c2)CC1` gave a growth percent of 10.7% (SRB; 10 µM, 48 h).
The growth percentage of `O=C1NC(c2ccccc2)(c2ccccc2)C(=O)N1Cc1cn(-c2c3ccccc3nc3ccccc23)nn1` is reported as 63.6% (NCI60 single-dose screen; 10 µM).
With `COC(=O)c1cc(C(C)=NNc2nc(-c3ccc4c(c3)OCCCO4)cs2)ccc1O` the apoptotic cells was 23.2 ± 2.09% (annexin V/PI flow cytometry; 40 µM, 72 h).
`CCOc1ccc(-c2nc3cc(-c4nc5cc(N6CCN(C)CC6)ccc5[nH]4)ccc3[nH]2)cc1OCC` has a growth percent of 15.2% (SRB; 10 µM, 48 h).
The IC50 of `CCC(=O)N1CCC(COCC(=O)N2CCN(c3nc(-c4cnc(N)nc4C(F)F)nc(N4CCOC[C@@H]4C)n3)CC2)CC1` is reported as 121 nM (FOXO1 translocation, kinase translocation reporter; 2 h).

Some of these lines once more:
With `COC(=O)c1cc(C(C)=NNc2nc(-c3ccc4c(c3)OCCCO4)cs2)ccc1O` the apoptotic cells was 23.2 ± 2.09% (annexin V/PI flow cytometry; 40 µM, 72 h).
`CCOc1ccc(-c2nc3cc(-c4nc5cc(N6CCN(C)CC6)ccc5[nH]4)ccc3[nH]2)cc1OCC` has a growth percent of 15.2% (SRB; 10 µM, 48 h).
The IC50 of `CCC(=O)N1CCC(COCC(=O)N2CCN(c3nc(-c4cnc(N)nc4C(F)F)nc(N4CCOC[C@@H]4C)n3)CC2)CC1` is reported as 121 nM (FOXO1 translocation, kinase translocation reporter; 2 h).
